# Measurements from different studies.
# Each line is one published result; not all experiments were run side by side. Several values in a cell are separate wells, animals, samples, runs or records. Numbers after ± are the reported error.
SMILES,assay,system,conditions,scale,quantity,value
CCCOc1ccc(-c2ccc(C#N)cc2)cc1,proteomics,rat placenta,"5 µg/mL, high dose",relative to: control,number of downregulated proteins,213
OCC(O)CO,ELISA,"Mus musculus male wild type, serum","drinking water, 5% w/v, 2 days",,FGF21 level,564 pg/mL and 324 pg/mL and 349 pg/mL and 429 pg/mL and 235 pg/mL
C[C@H]1C[C@H]2CSC(N)=N[C@@]2(c2nc(NC(=O)c3ccc(OC(F)F)cn3)cs2)CO1,measured: Aβ1-40,"healthy adults, plasma","50 mg once daily, day 10",relative to: placebo,percent change from baseline,-87.2%
[Mn+2],flow cytometry,"conventional CD4-high T cells, BALB/c mouse",dose not given,relative to: no Mn2+,CD18-high cell fraction,0.78 and 4.79 and 10.4 and 0.76 and 3.37 and 1.28 and 1.48 and 5.52
COC[C@@H](c1ccc(C(F)(F)F)cc1)N1CCN(C2(C)CCN(C(=O)c3c(C)ncnc3C)CC2)C[C@@H]1C,,"HIV-1 infected patients, plasma","15 mg, week 48, with optimized background regimen",relative to: baseline,change in HIV-1 RNA,-1.81 log10 copies/mL
O=C1Nc2cc3[nH]nc(-c4ccncc4)c3cc2CN1Cc1ccccc1,RECIST v1.1,"human, relapsed or refractory advanced solid tumours","intravenous, 7.2 mg/kg",,"stable disease, best response",33%
C[C@@H]1COCCN1c1cc([C@]2(O)C[C@H]3CC[C@@H](C2)O3)c2cnn(-c3cc[nH]n3)c2n1,,CW-2 colon xenograft mice,"5 mg/kg once daily for 7 days, day 14",,tumour growth inhibition,41.1 ± 7%
CCN1CCN(Cc2ccc(Nc3ncc(F)c(-c4cc(F)c5nc6n(c5c4)[C@H](C)CCC6)n3)nc2)CC1,,human advanced solid tumours,"50 mg, phase Ia monotherapy RECIST 1.1",,progressive disease,100%
CC(=O)NCC(=O)NCC(=O)N[C@H](C(=O)N[C@@H](Cc1ccc(O)cc1)C(=O)N[C@@H](CO)C(=O)N[C@H]1CSSC[C@@H](C(=O)N[C@@H](CCCNC(=N)N)C(=O)N2CCC[C@H]2C(=O)N[C@@H](CCC(N)=O)C(=O)N[C@@H](CCCNC(=N)N)C(=O)NCC(=O)NCCC(=O)N[C@@H](CCCCNC(=O)CN(CC(=O)NCCCC[C@H](NC(=O)CCNC(=O)CNC(=O)[C@H](CCCNC(=N)N)NC(=O)[C@H](CCC(N)=O)NC(=O)[C@@H]2CCCN2C(=O)[C@H](CCCNC(=N)N)NC(=O)[C@@H]2CSSC[C@H](NC(=O)[C@H](CO)NC(=O)[C@H](Cc3ccc(O)cc3)NC(=O)[C@@H](NC(=O)CNC(=O)CNC(C)=O)[C@@H](C)O)C(=O)N[C@@H](Cc3c[nH]cn3)C(=O)N[C@@H](Cc3ccccc3)C(=O)NCC(=O)N[C@@H](C)C(=O)N[C@@H](CC(C)C)C(=O)N[C@@H]([C@@H](C)O)C(=O)N[C@@H](Cc3c[nH]c4ccccc34)C(=O)N[C@@H](C(C)C)C(=O)N2)C(N)=O)C(=O)CCN)C(N)=O)NC(=O)[C@H](C(C)C)NC(=O)[C@H](Cc2c[nH]c3ccccc23)NC(=O)[C@H]([C@@H](C)O)NC(=O)[C@H](CC(C)C)NC(=O)[C@H](C)NC(=O)CNC(=O)[C@H](Cc2ccccc2)NC(=O)[C@H](Cc2c[nH]cn2)NC1=O)[C@@H](C)O,,healthy BALB/c mice,"subcutaneous, 0.08 mg/kg, 14 d, single dose",,reticulocytes,4.6%
CCc1c(C)nc(-c2ccc(Cl)s2)nc1Nc1ccc(CC(=O)O)cc1,,"mice, chronic ethanol plus binge","intraperitoneal, 0.3 mg/kg daily, ethanol diet 4 weeks, dosed last two",relative to: vehicle,serum ALT,decreased
O=C(OC(C(F)(F)F)C(F)(F)F)N1CCN(Cc2cccc(Oc3ccccc3)c2)CC1,PET blocking study,"rhesus monkey, brain thalamus","intravenous, 0.01 mg/kg, compound pretreatment, together with: [18F]T-401 tracer",,volume of distribution,7.62 mL/cm3
CC(C)[C@H](C(=O)Nc1ccc(C(=O)NO)cc1)c1ccccc1,,"human, left ear",9 months after treatment,,speech discrimination,0%
O=C(O)/C=C/c1ccc(O)c(O)c1,,"C57BL/6 mouse, myocardial ischaemia-reperfusion, serum",45 mg/kg,,SOD level,increased
FC(F)(F)CN1CC(n2cc(Oc3ccn4nc(Cl)cc4n3)cn2)C1,measured: C26:0 fatty acid,"Abcd1-/y mouse, spinal cord","feed, 100 mg/kg/day, 7 months",,reduction,66%
Cc1nc(N(Cc2ccccc2)c2ccc3c(c2)/C(=C/c2ccccc2)C(=O)N3Cc2ccccc2)c2ccccc2n1 (mixture of isomers),,mouse LLC syngeneic tumour,"ip, 15 mg/kg every two days, 14 days",,tumour weight,0.75 g
Cc1cc(Nc2cc3ncccc3c(N[C@@H]3C[C@H]4CC[C@@H](C3)N4CCC#N)n2)n[nH]1,,moderate-severe ulcerative colitis patients,"20 mg, day 28, unit not given",relative to: baseline,change in total Mayo,-1.3
O=C(O)/C=C/c1nccc2c3ccccc3n(Cc3ccc(C4CC4)c4ccccc34)c12,,"mouse, acute hyperuricaemia model","oral, 2 mg/kg",,decrease in serum uric acid,69.3%
COC(=O)CCc1ccc(OCC(O)CNC(C)C)cc1 (stereo not drawn),,healthy male humans,"concentration not given, 5 min, together with: saline",,heart rate,61.7 beats/min
COc1ccc(F)cc1C(=O)NCc1ccc(-c2nn([C@@H](C)C(F)(F)F)c(N)c2C(N)=O)cc1,,mouse OCI-Ly10 xenograft,"50 mg/kg twice daily, 840 h, 35 days after withdrawal",,tumour growth inhibition,93%
COc1ncc(-c2nc3c(n2C(C)C)[C@H](c2ccc(Cl)cc2)N(c2cc(Cl)cn(C)c2=O)C3=O)c(OC)n1,International Working Group criteria,human acute myeloid leukemia patients,"oral, 20 to 30 mg, response CR, low-dose",,best overall response,0%
Cc1cc(/C=C2\Oc3cc(OCC4CC4)ccc3C2=O)cc(C)c1OC(C)(C)C(=O)O,,db/db mice on MCD diet,"oral, 30 mg/kg daily, 45 days",,serum HDL level,increased
C[C@H]1O[C@@H](O[C@H]2CC[C@@]3(C)[C@@H](CC[C@]4(C)[C@@H]3C=C[C@]35OC[C@@]6(CCC(C)(C)C[C@H]63)[C@@H](O)C[C@]54C)[C@]2(C)CO)[C@H](O)[C@@H](O[C@@H]2O[C@H](CO)[C@@H](O)[C@H](O)[C@H]2O)[C@H]1O,,chronic-plus-binge ethanol mice,"oral, 15 mg/kg/day for 7 d, 168 h",,body weight change,-0.3 g and -0.1 g and -0.8 g and -0.4 g
COc1ccccc1[C@H](Cn1c(=O)n(C(C)(C)C(=O)O)c(=O)c2c(C)c(-c3ncco3)sc21)OC1CCOCC1,"[1-13C]acetate infusion, isotopomer analysis","overweight or obese healthy men, plasma VLDL-TG palmitate","oral, 50 mg single dose, 7 h post-dose, together with: oral fructose",,fractional hepatic DNL,8.34 % new palmitate
CN(C)C(=O)Oc1cccc([N+](C)(C)C)c1,,rat cisatracurium-induced neuromuscular block,0.004 mg/kg,,twitch response,25.8% and 19% and 25.5% and 13.4%
C[C@@H](O)CCOC(=O)C[C@@H](C)O,measured: C20-OH/C18-DC acylcarnitine,"human, plasma","60 min, log2-transformed values",,metabolite level,-6.73 ± 0.76 µmol/L
O=C(COc1ccc(Cl)cc1)NC12CC(c3nnc([C@H]4C[C@@H](OC(F)(F)F)C4)o3)(C1)C2,measured: CHAC1,"PBMC ex vivo stimulated, human ALS patients","200 mg, D21 predose",relative to: baseline,mRNA level change,-80.5%
Cc1n[nH]c2ccc(-c3cc(OC[C@@H](N)Cc4ccccc4)cnc3-c3ccoc3)cc12,"kinase binding, competitor, MIB/MS competition, measured: RCK2",Candida albicans cell lysate,10 µM,relative to: DMSO,log2 fold change,-0.886
Cc1cn(-c2ccc3n(c2=O)CCN([C@@H](C)[C@@H]2CC[C@H](c4cc(F)c(Cl)cc4C(F)(F)F)O2)C3=O)cn1,measured: Aβ38,"human, cerebrospinal fluid","300 mg single dose, Tmax",relative to: placebo-adjusted baseline,change in CSF level,46%
C[C@H](NC(=O)c1c(C(F)F)nn(C)c1Oc1cccc(C(F)(F)F)c1)c1ccc(C(=O)O)cc1,irRECIST best overall response,patients with advanced tumours,"dose not given, all dose groups combined",,patients not evaluable or unknown,33.3%
CCO[C@H]1CCN(Cc2c(OC)cc(C)c3[nH]ccc23)[C@H](c2ccc(C(=O)O)cc2)C1,,"PNH patients, blood","oral, 50 mg then 200 mg, week 2, mean absolute change",relative to: baseline,PNH RBC clone size,20.5%
CCN(Cc1nc2c(N)nc3cc(-c4cc[nH]n4)ccc3c2[nH]1)C(C)=O,"immunohistochemistry, measured: CD8+ T cells","patients with advanced solid tumours, non-injected tumour lesions","dose not given, monotherapy",,patients with increased CTLs,67%
CC(C)NCC(O)c1ccc(O)c(O)c1 (stereo not drawn),,"ventricular cardiomyocytes, C57BL/6 mouse","dose not given, 0.72 s",,sarcomere length,1.72 µm
N#Cc1ccc2c(-c3ccncc3)c(-c3ccc(F)cc3)nn2c1,"kinase binding, competitor, MIB/MS competition, measured: CKA1",Candida albicans cell lysate,10 µM,relative to: DMSO,log2 fold change,0.22
NC(=O)c1cnc2[nH]ccc2c1N[C@@H]1[C@@H]2CC3C[C@H]1C[C@@](O)(C3)C2,flow cytometry,"Japanese healthy men, blood","oral, 10 mg twice daily, 72 h after day 7 dose",relative to: baseline,CD4+CD28+ naive T-cell change,-4.67%
O=C(O)CNC(=O)Cc1ccccc1,,"ventricular cardiomyocytes, C57BL/6 mouse","dose not given, 0.612 s",,sarcomere length,1.68 µm
Cc1noc(C)c1-c1cc(C(O)(c2ccccn2)c2ccccn2)c2nc(C3CC3)[nH]c2c1,measured: HEXIM1 expression,"human, peripheral blood","3 mg, day 8, 1604 study",,maximum induction,68%

# Some of these lines once more:
SMILES,assay,system,conditions,scale,quantity,value
C[C@H]1C[C@H]2CSC(N)=N[C@@]2(c2nc(NC(=O)c3ccc(OC(F)F)cn3)cs2)CO1,measured: Aβ1-40,"healthy adults, plasma","50 mg once daily, day 10",relative to: placebo,percent change from baseline,-87.2%
COc1ccc(F)cc1C(=O)NCc1ccc(-c2nn([C@@H](C)C(F)(F)F)c(N)c2C(N)=O)cc1,,mouse OCI-Ly10 xenograft,"50 mg/kg twice daily, 840 h, 35 days after withdrawal",,tumour growth inhibition,93%
O=C(OC(C(F)(F)F)C(F)(F)F)N1CCN(Cc2cccc(Oc3ccccc3)c2)CC1,PET blocking study,"rhesus monkey, brain thalamus","intravenous, 0.01 mg/kg, compound pretreatment, together with: [18F]T-401 tracer",,volume of distribution,7.62 mL/cm3
NC(=O)c1cnc2[nH]ccc2c1N[C@@H]1[C@@H]2CC3C[C@H]1C[C@@](O)(C3)C2,flow cytometry,"Japanese healthy men, blood","oral, 10 mg twice daily, 72 h after day 7 dose",relative to: baseline,CD4+CD28+ naive T-cell change,-4.67%
